Measured values pooled from the literature.
Numbered parts are unrelated; each lists some results of a single study. Values joined by “and” are separate records of one study, mostly repeats; a detail may differ.

Study 1
Target: Serine/threonine-protein kinase N2 (PKN2, Homo sapiens, UniProt Q16513)
Chain of UniProt Q16513 (whole entry, looked up): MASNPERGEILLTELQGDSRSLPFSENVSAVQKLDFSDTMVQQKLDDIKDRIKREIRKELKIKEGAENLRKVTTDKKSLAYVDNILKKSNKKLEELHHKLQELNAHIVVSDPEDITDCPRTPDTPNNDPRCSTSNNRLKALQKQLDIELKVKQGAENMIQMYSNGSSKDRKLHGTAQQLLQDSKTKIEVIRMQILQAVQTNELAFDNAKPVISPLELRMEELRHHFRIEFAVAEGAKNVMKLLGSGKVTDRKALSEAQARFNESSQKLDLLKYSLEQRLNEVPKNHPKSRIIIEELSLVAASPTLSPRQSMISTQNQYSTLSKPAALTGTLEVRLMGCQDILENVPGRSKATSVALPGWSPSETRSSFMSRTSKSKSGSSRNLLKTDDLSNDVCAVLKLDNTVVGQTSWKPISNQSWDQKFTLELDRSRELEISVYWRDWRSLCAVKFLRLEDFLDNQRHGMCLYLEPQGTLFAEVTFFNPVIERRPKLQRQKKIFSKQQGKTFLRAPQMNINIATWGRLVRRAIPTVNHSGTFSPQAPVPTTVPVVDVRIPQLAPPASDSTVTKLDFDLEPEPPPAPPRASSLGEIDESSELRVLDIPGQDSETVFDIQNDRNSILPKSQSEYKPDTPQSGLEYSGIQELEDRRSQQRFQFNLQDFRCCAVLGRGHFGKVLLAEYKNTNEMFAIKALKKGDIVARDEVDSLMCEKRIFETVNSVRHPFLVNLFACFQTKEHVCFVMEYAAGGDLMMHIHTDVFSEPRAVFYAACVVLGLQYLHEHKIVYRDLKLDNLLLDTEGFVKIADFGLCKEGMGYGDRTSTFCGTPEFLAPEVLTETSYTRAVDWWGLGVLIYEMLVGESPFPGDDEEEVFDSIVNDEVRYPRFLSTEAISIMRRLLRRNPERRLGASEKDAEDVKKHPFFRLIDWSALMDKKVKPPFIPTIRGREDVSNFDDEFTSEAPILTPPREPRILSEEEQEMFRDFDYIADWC
Observed: enzyme activity
Action: inhibitor
Concentration: 0.5 µM
Reference: control
| Compound | remaining activity [%] |
| --- | --- |
| OCC(O)CCON=C1C(c2c(O)[nH]c3ccccc23)=Nc2ccccc21 (centres unmarked) | 90.1 |
| O=C1NC(=O)C(c2cn(CCCn3ccnc3)c3ccccc23)=C1Nc1ccccc1 | 76.9 |
| Cc1cccc(-c2[nH]c(C(C)(C)C)nc2-c2ccc3c(c2)OCO3)n1 | 93.5 |
| Cc1ccc(Nc2nccc(N(C)c3ccc4c(C)n(C)nc4c3)n2)cc1S(N)(=O)=O | 106 |
| CCOC(=O)c1c(C)[nH]c(/C=C2\C(=O)Nc3ccccc32)c1C | 92 |
| O=C1NC(=O)C(c2cn(CCCO)c3ncccc23)=C1c1cnccn1 | 83.3 |
| CNC(=O)c1cc(Oc2ccc(NC(=O)Nc3ccc(Cl)c(C(F)(F)F)c3)cc2)ccn1 | 94.2 |
| Cn1c2ccccc2c2c3c(c4c5ccccc5n(CCC#N)c4c21)CNC3=O | 67.7 |
| Cn1sc(=O)n(Cc2ccccc2)c1=O | 97.2 |
| Oc1ccc(-c2nc(-c3ccncc3)c(-c3ccc(F)cc3)[nH]2)cc1 | 101 |
| O=C(O)c1ccc2c3c1cccc3c(=O)n1c3ccccc3nc21 | 97.9 |
| O=C(Nc1cccc(Nc2cc(Nc3cccc(C(F)(F)F)c3)ncn2)c1)C1CC1 | 95.9 |
| O=C(CCCc1ccc(-c2ccccc2F)cc1)Nc1ccc(O)cc1 | 89.8 |
| CO[C@H]1C[C@@H]2CC[C@@H](C)[C@@](O)(O2)C(=O)C(=O)N2CCCC[C@H]2C(=O)O[C@H]([C@H](C)C[C@@H]2CC[C@@H](O)[C@H](OC)C2)CC(=O)[C@H](C)/C=C(\C)[C@@H](O)[C@@H](OC)C(=O)[C@H](C)C[C@H](C)/C=C/C=C/C=C/1C | 89.8 |

Study 2
Cell line: mouse MPNST tumor cells
Technique: high-content nuclear imaging
Item: cell number
Concentration: 10 µM
Time: 12 h
Setting: mean of 2 replicates
Reference: plate mean
Direction: higher = more cells
| SMILES | nuclei count |
| --- | --- |
| Cn1c(=O)c2nc[nH]c2n(C)c1=O | 0.38 z-score and 2.58 z-score |
| O=C(c1ccc(C(=O)N2CCC(N3CCCC3)CC2)c(Nc2ccccc2)c1)N1CCC(N2CCCC2)CC1 | 1.05 z-score |
| COc1ccc2cc(OCC3(C(=O)O)CN(C(=O)c4ccc(F)cc4)C3)ccc2c1 | 1.18 z-score |
| S=P(N1CC1)(N1CC1)N1CC1 | -0.107 z-score |
| Oc1cccc(-c2nc(N3CCOCC3)c3oc4ncccc4c3n2)c1 | -0.309 z-score |
| CCN(C(=O)CO)[C@H]1CN(/C(=N\C#N)Nc2cccc(OC(F)F)c2)N=C1c1ccc(Cl)c(Cl)c1 | 1.02 z-score |
| c1cc2c(cc1C1CCCCC1)c1c3n2CCNC3CCC1 (centres unmarked) | -5.77 z-score |
| Nc1ccc(-c2ccc3ncc4ccc(=O)n(-c5cccc(C(F)(F)F)c5)c4c3c2)cn1 | -4.42 z-score |
| O=C(NC(Cc1cc(=O)[nH]c2ccccc12)C(=O)O)c1ccc(Cl)cc1 (centres unmarked) | 2.57 z-score |

Study 3
Target: 5-hydroxytryptamine receptor 1B (HTR1B, Homo sapiens, UniProt P28222)
Chain of UniProt P28222 (whole entry, looked up): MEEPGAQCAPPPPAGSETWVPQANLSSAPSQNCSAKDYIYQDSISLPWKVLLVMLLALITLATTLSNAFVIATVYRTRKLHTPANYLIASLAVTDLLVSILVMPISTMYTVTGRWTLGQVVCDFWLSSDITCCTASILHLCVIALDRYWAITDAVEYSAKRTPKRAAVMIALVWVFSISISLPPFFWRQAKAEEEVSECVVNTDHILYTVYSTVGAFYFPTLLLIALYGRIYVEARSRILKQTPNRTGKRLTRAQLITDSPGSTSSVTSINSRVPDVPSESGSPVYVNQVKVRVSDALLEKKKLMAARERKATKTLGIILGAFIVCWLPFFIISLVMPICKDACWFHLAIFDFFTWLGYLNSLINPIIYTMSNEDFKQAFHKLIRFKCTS
Observed: ligand displacement
Technique: radioligand
Concentration: 10 µM
| Compound | inhibition |
| --- | --- |
| CCC(=O)N[C@@H]1CC[C@H](C(=O)N(C)c2ccc(-c3nc4ccccc4o3)cc2)C1 | -14.1% |
| CS(=O)(=O)NCC[C@H](NC(=O)c1cncc2c1cnn2-c1ccc(F)cc1)c1ccnc(S(C)(=O)=O)c1 | 47.7% |
| CN(c1ccnc(CNc2nc(Nc3ccc4c(c3)CC(=O)N4)ncc2C(F)(F)F)n1)S(C)(=O)=O | 5.78% |
| C[C@H](c1cccc(C#N)c1)n1cc(Cl)cc(C(N)=O)c1=N | -4.95% |
| C[C@@H]1CN(c2cc(-c3n[nH]c4ccc(OC5(C)CC5)cc34)ncn2)C[C@H](C)O1 | 1.16% |
| CNC(=O)c1ccc(Nc2ncc(C(F)(F)F)c(NCc3nccnc3N(C)S(C)(=O)=O)n2)cc1 | 12.5% |
| CSc1cccnc1N1CCN(Cc2nc3ccccc3[nH]2)CC1 | 1.5% |
| COCCOc1nc(-c2ccc(Cl)nc2)nc2c1CN(C(=O)c1ncn3ccccc13)CC2 | 23.3% |
| CC(=O)N1CCC(c2ccc(C(=O)NC3=NCCN3)cc2C(F)(F)F)CC1 | 37.8% |
| Cc1nc(C2CCN(C(=O)c3ccc(OC(F)(F)F)cc3N)CC2)c2ncc(N3CCN(C)CC3)cc2n1 | 14.6% |
| C[C@@H](NC(=O)Nc1cc2[nH]ncc2c(CO)n1)c1ccccc1 | 4.23% |
| CCOc1cc(N2C3COCC2CN(C(=O)[C@H]2C[C@H](O)CN2c2ccc(Cl)cc2)C3)ccc1Cl | -2.86% |
| CN(C)C(=O)Cn1cc(-c2nc([C@@](C)(c3ccc(-c4cnc(N)nc4)cc3)C3CC3)no2)cn1 | -3.77% |

Study 4
Cell line: HaCaT
Concentration: 100 µM
Time: 36 h
| Compound | viability |
| --- | --- |
| COc1cc2nc(N3CCN(C(=O)c4ccco4)CC3)nc(N)c2cc1OC | 6.52% |
| Cc1cccc(C)c1OCC(C)N (centres unmarked) | 53.8% |
| CO[C@H]1C[C@@H]2CC[C@@H](C)[C@@](O)(O2)C(=O)C(=O)N2CCCC[C@H]2C(=O)O[C@H]([C@H](C)C[C@@H]2CC[C@@H](OCCO)[C@H](OC)C2)CC(=O)[C@H](C)/C=C(\C)[C@@H](O)[C@@H](OC)C(=O)[C@H](C)C[C@H](C)/C=C/C=C/C=C/1C | 6.76% |
| CN1CCC(OC(c2ccccc2)c2ccccc2)CC1 | 51.9% |
| CN(C)[C@@H]1C(O)=C(C(N)=O)C(=O)[C@@]2(O)C(O)=C3C(=O)c4c(O)ccc(Cl)c4[C@@](C)(O)[C@H]3C[C@@H]12 | 57.5% |

For quick reference, copied from above (study 1):
| Compound | remaining activity [%] |
| --- | --- |
| O=C(O)c1ccc2c3c1cccc3c(=O)n1c3ccccc3nc21 | 97.9 |
| CO[C@H]1C[C@@H]2CC[C@@H](C)[C@@](O)(O2)C(=O)C(=O)N2CCCC[C@H]2C(=O)O[C@H]([C@H](C)C[C@@H]2CC[C@@H](O)[C@H](OC)C2)CC(=O)[C@H](C)/C=C(\C)[C@@H](O)[C@@H](OC)C(=O)[C@H](C)C[C@H](C)/C=C/C=C/C=C/1C | 89.8 |
| OCC(O)CCON=C1C(c2c(O)[nH]c3ccccc23)=Nc2ccccc21 (centres unmarked) | 90.1 |
| Cn1sc(=O)n(Cc2ccccc2)c1=O | 97.2 |
